Measured values gathered from unrelated publications.
Each line is one published result; not all experiments were run side by side.

SMILES	system	conditions	Papp [×10⁻⁶ cm/s]
Cn1cnnc1C1CCN(c2ncccc2-c2cccnc2)CC1	PAMPA-BBB	10 µM, 4 h, pH 7.4	0.9
CC(C)OC(=O)c1ccc(O)cc1	PAMPA	5 µM, pH 7.4	5.64
COc1ccc(CNc2ccc3c(c2)S(=O)(=O)C=C3)cc1	PAMPA-BBB	pH 7.4	10.1
O=C(Oc1ccccc1)c1ccc(O)cc1	PAMPA	5 µM, pH 7.4	5.35
COc1ccccc1CNc1ccc2c(c1)S(=O)(=O)C=C2	PAMPA-BBB	pH 7.4	12.7
CCCCCCCCCOC(=O)c1ccc(O)cc1	PAMPA	5 µM, pH 7.4	3.06
CN(C)C(=O)c1cccc(N2Cc3cn(Cc4ccc(F)cc4)nc3C2)c1	MDCK-MDR1	–	43.4
COc1ccc(CNc2ccc3c(c2)S(=O)(=O)CC3)cc1	PAMPA-BBB	pH 7.4	23.1
CC[C@H](C)[C@@H]1NC(=O)[C@H](Cc2ccc(O)cc2)NC(=O)CSC[C@@H](C(N)=O)NC(=O)[C@H](CC(N)=O)NC(=O)[C@H](Cc2c[nH]cn2)NC(=O)[C@H](Cc2ccc(O)cc2)NC(=O)[C@H](CC(=O)O)NC(=O)[C@H](Cc2ccc(F)cc2)NC(=O)[C@H](CC(C)C)NC(=O)[C@H](CCCNC(=N)N)NC1=O	PAMPA	200 µM, 5 h, pH 7.4	0.0273
Cc1cc(C(=O)N[C@@H](CC(=O)NC(C)(C)C)C(=O)NCCNC(=O)c2cc(-c3ccccc3)ccn2)no1	PAMPA	pH 5	22
C/C(N)=N/C(=N\S(=O)(=O)c1ccc(C(F)(F)F)cc1)N1C[C@H](c2ccccc2)C(c2ccc(Cl)cc2)=N1	PAMPA	pH 5	522
O=C(c1ccnc(N2Cc3cn(Cc4ccc(F)cc4)nc3C2)n1)N1CCOCC1	MDCK-MDR1	–	12
O=S1(=O)C=Cc2ccc(NCc3ccccc3O)cc21	PAMPA-BBB	pH 7.4	16.9
CN(C)C(=O)c1cccc(N2Cc3cn(Cc4ccc(F)c(F)c4)nc3C2)c1	MDCK-MDR1	–	39.3
Cc1cc(C(=O)N[C@@H](CC(=O)NC(C)(C)C)C(=O)NCCNC(=O)c2cccc(-n3cccn3)c2)no1	PAMPA	pH 5	5.6
O=C(NCC(F)(F)F)c1cccc(N2Cc3cn(Cc4ccc(F)cc4)nc3C2)c1	MDCK-MDR1	–	3.4
CC[C@H](C)[C@@H]1NC(=O)[C@H](Cc2ccc(O)cc2)NC(=O)CSC[C@@H](C(N)=O)NC(=O)[C@H](CC(N)=O)NC(=O)[C@H](Cc2c[nH]cn2)NC(=O)[C@H](Cc2ccc(O)cc2)NC(=O)[C@H](CC(=O)O)NC(=O)[C@H](Cc2ccc(F)c(F)c2)NC(=O)[C@H](CC(C)C)NC(=O)[C@H](CCCNC(=N)N)NC1=O	PAMPA	200 µM, 5 h, pH 7.4	0.0358

Excerpt of the above:
SMILES	system	conditions	Papp [×10⁻⁶ cm/s]
CCCCCCCCCOC(=O)c1ccc(O)cc1	PAMPA	5 µM, pH 7.4	3.06
Cn1cnnc1C1CCN(c2ncccc2-c2cccnc2)CC1	PAMPA-BBB	10 µM, 4 h, pH 7.4	0.9
CN(C)C(=O)c1cccc(N2Cc3cn(Cc4ccc(F)c(F)c4)nc3C2)c1	MDCK-MDR1	–	39.3
